Results from different studies.
Lines come from different studies, so protocols differ.
Potassium/sodium hyperpolarization-activated cyclic nucleotide-gated channel 1: Potassium/sodium hyperpolarization-activated cyclic nucleotide-gated channel 1 (Homo sapiens, UniProt O60741)
Sequence of UniProt O60741 (whole entry, looked up): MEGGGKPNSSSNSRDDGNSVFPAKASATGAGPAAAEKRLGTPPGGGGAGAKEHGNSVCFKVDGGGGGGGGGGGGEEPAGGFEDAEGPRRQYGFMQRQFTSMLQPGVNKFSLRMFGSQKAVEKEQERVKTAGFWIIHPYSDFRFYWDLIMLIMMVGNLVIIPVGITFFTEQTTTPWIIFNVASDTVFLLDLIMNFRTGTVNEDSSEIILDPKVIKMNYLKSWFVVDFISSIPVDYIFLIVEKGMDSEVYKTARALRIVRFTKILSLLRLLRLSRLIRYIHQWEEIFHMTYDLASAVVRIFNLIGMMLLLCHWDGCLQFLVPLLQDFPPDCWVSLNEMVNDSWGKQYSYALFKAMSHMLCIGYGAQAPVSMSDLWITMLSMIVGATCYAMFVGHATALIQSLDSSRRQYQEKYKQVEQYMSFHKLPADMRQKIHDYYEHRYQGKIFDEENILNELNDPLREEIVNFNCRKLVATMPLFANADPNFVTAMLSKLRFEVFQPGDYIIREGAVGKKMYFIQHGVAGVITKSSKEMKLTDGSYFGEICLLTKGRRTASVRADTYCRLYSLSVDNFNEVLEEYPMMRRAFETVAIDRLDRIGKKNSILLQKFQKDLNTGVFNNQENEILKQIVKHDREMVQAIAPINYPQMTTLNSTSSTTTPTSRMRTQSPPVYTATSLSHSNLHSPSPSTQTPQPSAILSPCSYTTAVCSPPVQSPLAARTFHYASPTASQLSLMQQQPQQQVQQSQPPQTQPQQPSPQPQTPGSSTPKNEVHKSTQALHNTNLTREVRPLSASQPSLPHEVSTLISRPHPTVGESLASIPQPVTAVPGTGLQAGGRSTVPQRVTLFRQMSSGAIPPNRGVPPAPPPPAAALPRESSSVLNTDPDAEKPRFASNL
4'-phosphopantetheinyl transferase PptT: 4'-phosphopantetheinyl transferase PptT (Mycobacterium tuberculosis, UniProt O33336)
Sequence of UniProt O33336 (whole entry, looked up): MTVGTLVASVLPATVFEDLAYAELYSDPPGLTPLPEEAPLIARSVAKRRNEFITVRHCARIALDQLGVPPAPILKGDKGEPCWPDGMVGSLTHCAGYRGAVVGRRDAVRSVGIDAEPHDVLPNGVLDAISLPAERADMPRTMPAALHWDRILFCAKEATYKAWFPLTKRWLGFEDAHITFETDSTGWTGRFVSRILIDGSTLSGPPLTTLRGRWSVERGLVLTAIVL
PPO3: PPO3 (Agaricus bisporus, UniProt C7FF04)
Sequence of UniProt C7FF04 (whole entry, looked up): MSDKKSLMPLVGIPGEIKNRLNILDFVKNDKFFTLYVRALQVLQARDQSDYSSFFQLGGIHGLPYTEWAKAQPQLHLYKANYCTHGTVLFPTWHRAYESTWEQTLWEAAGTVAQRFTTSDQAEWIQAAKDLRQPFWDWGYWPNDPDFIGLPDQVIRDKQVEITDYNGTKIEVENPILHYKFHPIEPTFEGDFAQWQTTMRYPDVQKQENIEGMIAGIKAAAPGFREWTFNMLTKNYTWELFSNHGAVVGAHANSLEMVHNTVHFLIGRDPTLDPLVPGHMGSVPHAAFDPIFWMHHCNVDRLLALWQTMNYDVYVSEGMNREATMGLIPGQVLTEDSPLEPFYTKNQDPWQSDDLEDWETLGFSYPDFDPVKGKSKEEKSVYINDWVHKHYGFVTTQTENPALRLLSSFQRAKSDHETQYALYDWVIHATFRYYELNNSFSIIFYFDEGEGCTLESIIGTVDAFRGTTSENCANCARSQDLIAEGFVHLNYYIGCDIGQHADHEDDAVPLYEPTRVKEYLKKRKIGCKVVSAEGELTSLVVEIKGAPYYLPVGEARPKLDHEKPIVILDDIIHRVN
Sequence of UniProt P78362 (whole entry, looked up): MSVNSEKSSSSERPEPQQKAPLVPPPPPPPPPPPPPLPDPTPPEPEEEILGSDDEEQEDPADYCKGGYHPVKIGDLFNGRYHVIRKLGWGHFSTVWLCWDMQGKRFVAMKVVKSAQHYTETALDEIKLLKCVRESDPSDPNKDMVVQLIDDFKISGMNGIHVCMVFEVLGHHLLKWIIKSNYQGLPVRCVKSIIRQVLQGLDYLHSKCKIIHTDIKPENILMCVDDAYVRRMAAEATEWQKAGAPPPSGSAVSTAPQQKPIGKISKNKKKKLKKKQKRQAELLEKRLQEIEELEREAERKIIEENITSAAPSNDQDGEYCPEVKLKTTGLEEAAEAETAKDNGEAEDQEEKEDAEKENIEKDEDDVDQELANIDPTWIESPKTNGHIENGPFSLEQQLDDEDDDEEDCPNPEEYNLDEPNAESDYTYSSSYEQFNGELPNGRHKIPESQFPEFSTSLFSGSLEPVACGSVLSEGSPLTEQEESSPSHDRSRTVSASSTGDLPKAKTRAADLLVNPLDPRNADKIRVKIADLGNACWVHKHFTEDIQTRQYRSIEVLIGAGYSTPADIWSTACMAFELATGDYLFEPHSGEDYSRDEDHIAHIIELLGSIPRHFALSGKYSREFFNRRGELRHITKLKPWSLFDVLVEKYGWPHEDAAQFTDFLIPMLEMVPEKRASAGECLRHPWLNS
Sequence of UniProt Q96PY6 (whole entry, looked up): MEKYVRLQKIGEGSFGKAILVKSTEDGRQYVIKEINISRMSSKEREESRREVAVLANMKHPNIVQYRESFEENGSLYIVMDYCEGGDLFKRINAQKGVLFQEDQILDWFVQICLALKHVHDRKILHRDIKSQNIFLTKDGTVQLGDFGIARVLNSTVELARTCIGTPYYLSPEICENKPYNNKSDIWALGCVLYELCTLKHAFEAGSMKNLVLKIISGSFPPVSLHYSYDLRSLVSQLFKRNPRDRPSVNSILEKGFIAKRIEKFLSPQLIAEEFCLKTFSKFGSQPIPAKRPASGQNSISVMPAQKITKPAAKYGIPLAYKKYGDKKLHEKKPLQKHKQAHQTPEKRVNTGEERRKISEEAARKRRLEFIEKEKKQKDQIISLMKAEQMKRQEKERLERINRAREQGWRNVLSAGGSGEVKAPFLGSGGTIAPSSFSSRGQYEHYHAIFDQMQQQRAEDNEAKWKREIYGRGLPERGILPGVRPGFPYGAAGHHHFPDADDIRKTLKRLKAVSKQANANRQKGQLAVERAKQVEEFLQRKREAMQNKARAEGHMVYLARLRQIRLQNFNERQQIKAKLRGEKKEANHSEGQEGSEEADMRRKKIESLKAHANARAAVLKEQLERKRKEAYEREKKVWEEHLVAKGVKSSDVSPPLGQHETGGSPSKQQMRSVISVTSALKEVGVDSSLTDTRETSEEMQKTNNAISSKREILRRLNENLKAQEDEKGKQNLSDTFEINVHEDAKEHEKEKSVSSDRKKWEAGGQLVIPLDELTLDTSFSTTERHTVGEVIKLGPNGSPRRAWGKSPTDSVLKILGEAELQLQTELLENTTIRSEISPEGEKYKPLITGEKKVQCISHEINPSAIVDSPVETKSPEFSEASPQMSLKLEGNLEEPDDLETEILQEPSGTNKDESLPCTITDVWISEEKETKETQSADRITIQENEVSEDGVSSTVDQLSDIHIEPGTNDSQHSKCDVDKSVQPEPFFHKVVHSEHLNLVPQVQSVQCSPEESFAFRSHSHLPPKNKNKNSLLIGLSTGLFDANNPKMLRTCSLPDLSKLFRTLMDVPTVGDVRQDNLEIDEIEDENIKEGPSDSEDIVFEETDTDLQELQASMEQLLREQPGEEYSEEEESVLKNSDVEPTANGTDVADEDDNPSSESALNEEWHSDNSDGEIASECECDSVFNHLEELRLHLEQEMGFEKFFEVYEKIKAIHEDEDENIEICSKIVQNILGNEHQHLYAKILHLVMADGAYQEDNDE
Sequence of UniProt P37023 (whole entry, looked up): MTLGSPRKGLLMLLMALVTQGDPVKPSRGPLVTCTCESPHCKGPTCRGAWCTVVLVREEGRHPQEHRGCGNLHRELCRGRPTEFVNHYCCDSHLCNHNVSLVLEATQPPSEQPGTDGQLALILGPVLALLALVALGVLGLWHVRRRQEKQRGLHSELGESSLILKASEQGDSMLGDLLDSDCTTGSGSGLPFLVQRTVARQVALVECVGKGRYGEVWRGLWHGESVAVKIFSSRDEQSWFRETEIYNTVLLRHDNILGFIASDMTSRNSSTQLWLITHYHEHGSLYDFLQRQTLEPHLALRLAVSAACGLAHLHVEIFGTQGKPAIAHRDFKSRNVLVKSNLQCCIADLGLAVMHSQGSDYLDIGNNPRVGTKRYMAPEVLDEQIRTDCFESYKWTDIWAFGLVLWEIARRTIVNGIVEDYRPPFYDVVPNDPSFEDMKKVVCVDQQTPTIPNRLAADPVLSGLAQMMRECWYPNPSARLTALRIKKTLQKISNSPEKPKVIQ
Sequence of UniProt P41145 (whole entry, looked up): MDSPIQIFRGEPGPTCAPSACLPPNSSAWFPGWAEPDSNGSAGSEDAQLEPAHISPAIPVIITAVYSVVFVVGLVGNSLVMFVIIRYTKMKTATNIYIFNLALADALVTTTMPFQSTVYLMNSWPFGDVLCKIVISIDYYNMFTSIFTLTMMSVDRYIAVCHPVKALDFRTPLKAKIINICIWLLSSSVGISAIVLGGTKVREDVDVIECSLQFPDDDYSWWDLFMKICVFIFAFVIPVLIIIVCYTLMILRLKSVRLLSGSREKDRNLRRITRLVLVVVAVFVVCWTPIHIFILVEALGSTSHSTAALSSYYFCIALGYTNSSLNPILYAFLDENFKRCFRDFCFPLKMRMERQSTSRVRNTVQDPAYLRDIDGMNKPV
Sequence of UniProt P68400 (whole entry, looked up): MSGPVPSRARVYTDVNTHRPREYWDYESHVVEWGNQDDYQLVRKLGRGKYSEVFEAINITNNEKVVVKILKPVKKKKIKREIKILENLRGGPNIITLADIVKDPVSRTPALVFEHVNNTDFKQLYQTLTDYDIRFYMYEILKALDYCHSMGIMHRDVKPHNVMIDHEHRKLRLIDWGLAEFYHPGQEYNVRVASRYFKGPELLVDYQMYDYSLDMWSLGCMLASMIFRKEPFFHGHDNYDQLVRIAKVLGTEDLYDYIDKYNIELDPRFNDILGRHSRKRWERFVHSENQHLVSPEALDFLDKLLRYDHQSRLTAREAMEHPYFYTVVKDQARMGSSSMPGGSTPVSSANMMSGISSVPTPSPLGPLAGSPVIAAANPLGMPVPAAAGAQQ

Compound | target | test | conditions | quantity | result
CC(C)NCC(O)COc1cccc2ccccc12 (stereo not shown) | Potassium/sodium hyperpolarization-activated cyclic nucleotide-gated channel 1 | ion current, inhibitor | 3 µM | inhibition | -3.42%
c1cncc([C@@H]2CCCN2)c1 | ADRA1D (Homo sapiens, UniProt P25100) | ligand displacement | 50 µM | inhibition | -11.2%
CCCN1C[C@H](CSC)C[C@@H]2c3cccc4[nH]cc(c34)C[C@H]21 | Potassium/sodium hyperpolarization-activated cyclic nucleotide-gated channel 1 | ion current, inhibitor | 3 µM | inhibition | 1.52%
O=c1cc(N2CCOCC2)oc2c(-c3ccccc3)cccc12 | PIK3CG (Homo sapiens, UniProt P48736) | enzyme activity, inhibitor, ADP detection | 10 µM | inhibition | 78.9%
Cn1cc(-c2cc(F)cc(N3CCn4c(cc5c4CCCC5)C3=O)c2CO)cc(Nc2ccc(N3CCN(C4COC4)CC3)cn2)c1=O | Cyclin-dependent kinase 9, with cyclin T1 (CDK9, Homo sapiens, UniProt P50750) | enzyme activity, inhibitor | 0.1 µM | inhibition | 6%
CC[C@H](C)[C@H](NC(=O)[C@@H](NC(=O)[C@H](N)Cc1ccccc1)C(C)C)C(=O)N[C@@H](C)C(N)=O | APP (Homo sapiens, UniProt P05067) | amyloid aggregation, inhibitor, fluorescence | 4 µM, 24 h | inhibition | 100%
COc1cc2cc3c4c(cc(OC)c(OC)c4c2cc1OC)CCN3C | HTR2B (Homo sapiens, UniProt P41595) | ligand displacement, radioligand | 10 µM | inhibition | 33%
COc1cc(Nc2ncc(F)c(Nc3ccc4c(n3)NC(=O)C(C)(C)O4)n2)cc(OC)c1OC | STK38 (Homo sapiens, UniProt Q15208) | binding | 10 µM | inhibition | 65%
Nc1c(Br)cc(Br)cc1CN[C@H]1CC[C@H](O)CC1 | Potassium/sodium hyperpolarization-activated cyclic nucleotide-gated channel 1 | ion current, inhibitor | 10 µM | inhibition | -1.22%
CC(C)C[C@H]1C(=O)N2CCC[C@H]2[C@]2(O)O[C@](NC(=O)[C@@H]3C=C4c5cccc6[nH]c(Br)c(c56)C[C@H]4[N+](C)(C)C3)(C(C)C)C(=O)N12 | OPRK1 (Homo sapiens, UniProt P41145) | ligand displacement, radioligand | 10 µM | inhibition | 80%
Cc1nc(Nc2ccc(CC(=O)O)cc2)nc(Nc2ccc(F)c(C(F)(F)F)c2)c1C | PDE4A (Homo sapiens, UniProt P27815) | enzyme activity, inhibitor, FP | 200 µM | inhibition | 36%
Cc1nnc(SCC2=C(C(=O)O)N3C(=O)[C@@H](NC(=O)Cn4cnnn4)[C@H]3SC2)s1 | Potassium/sodium hyperpolarization-activated cyclic nucleotide-gated channel 1 | ion current, inhibitor | 30 µM | inhibition | -3.71%
Cc1nn(C)cc1-c1nc2c(N3CCN(Cc4ccc(Cl)cc4)CC3)c(Cl)cnc2[nH]1 | BMPR1A (Homo sapiens, UniProt P36894) | binding, competition with immobilised ligand | 1 µM | remaining binding | 62%
O=C(O)c1cc2[nH]c(=S)n(Cc3cccnc3)c(=O)c2cc1Cl | 4'-phosphopantetheinyl transferase PptT | enzyme activity, inhibitor, FP |  | IC50 | > 100000 nM
O=C1NC(=O)C(c2ccccc2)(c2ccccc2)N1 | Potassium/sodium hyperpolarization-activated cyclic nucleotide-gated channel 1 | ion current, inhibitor | 30 µM | inhibition | 6.55%
COc1ncccc1-c1cnn2ccc(N3CCN(C(=O)OC(C)C)CC3)nc12 | ACVRL1 (Homo sapiens, UniProt P37023) | binding, competition with immobilised ligand | 1 µM | remaining binding | 100%
COc1cc(/C=C/C(=O)O)ccc1OCc1cn(CC(=O)Nc2ccc(F)cc2)nn1 | PPO3 | enzyme activity, inhibitor | 40 µM | inhibition | 14.2%
CC(=O)Nc1ccc(O)cc1 | Potassium/sodium hyperpolarization-activated cyclic nucleotide-gated channel 1 | ion current, inhibitor | 30 µM | inhibition | 19.3%
COc1cc(/C=C/C(=O)O)ccc1OCc1cn(CC(=O)Nc2ccc(O)cc2)nn1 | PPO3 | enzyme activity, inhibitor | 40 µM | inhibition | 10.4%
CN1CCC[C@H]1c1cccnc1 | DRD1 (Homo sapiens, UniProt P21728) | ligand displacement | 50 µM | inhibition | -2.56%
C#Cc1n[nH]c2c(-c3cn([C@@H](C)c4ccccn4)c(=O)[nH]c3=O)cc(F)cc12 | RET (Homo sapiens, UniProt P07949) | enzyme activity, inhibitor | 0.1 µM | inhibition | 6.5%
Nc1ncnc2c1ncn2[C@@H]1O[C@H](C[C@@H](N)CC[C@H](N)C(=O)O)[C@@H](O)[C@H]1O | RNMT (Homo sapiens, UniProt O43148) | enzyme activity, inhibitor | 200 µM | inhibition | 95.2%
Cn1cc(-c2cccc(N3CCc4c(sc5c4CC(C)(C)C5)C3=O)c2CO)cc(Nc2ccncn2)c1=O | CSNK2A1 (Homo sapiens, UniProt P68400) | enzyme activity, inhibitor | 1 µM | inhibition | 3%
Cn1c(=O)c2[nH]cnc2n(C)c1=O | Potassium/sodium hyperpolarization-activated cyclic nucleotide-gated channel 1 | ion current, inhibitor | 10 µM | inhibition | 11.7%
O=c1c2cc(Cl)ccc2[nH]c(=S)n1Cc1cncnc1 | 4'-phosphopantetheinyl transferase PptT | enzyme activity, inhibitor, FP |  | IC50 | 620 nM
Nc1ncc(-c2nc(N3CCOCC3)nc(N3CCOCC3)n2)c(C(F)F)n1 | SRPK2 (Homo sapiens, UniProt P78362) | binding, competition with immobilised ligand | 10 µM | remaining binding | 100%
[2H]c1c([2H])c([C@]2([2H])CCCN2C(=O)C(C)(C)Oc2ccc3cn[nH]c3c2)c([2H])c([2H])c1C([2H])([2H])[2H] | NEK1 (Homo sapiens, UniProt Q96PY6) | binding, competition with immobilised ligand | 1 µM | remaining binding | 93%
CC(C)CC(=O)OC[C@H]1O[C@@](C#N)(c2ccc3c(N)ncnn23)[C@H](O)[C@@H]1O | NR3C1 (Homo sapiens, UniProt P04150) | cell-free assay | 20 µM | inhibition | -3%

Repeated from above:
Compound | target | test | conditions | quantity | result
COc1cc(/C=C/C(=O)O)ccc1OCc1cn(CC(=O)Nc2ccc(O)cc2)nn1 | PPO3 | enzyme activity, inhibitor | 40 µM | inhibition | 10.4%
CC(C)CC(=O)OC[C@H]1O[C@@](C#N)(c2ccc3c(N)ncnn23)[C@H](O)[C@@H]1O | NR3C1 (Homo sapiens, UniProt P04150) | cell-free assay | 20 µM | inhibition | -3%
Nc1ncnc2c1ncn2[C@@H]1O[C@H](C[C@@H](N)CC[C@H](N)C(=O)O)[C@@H](O)[C@H]1O | RNMT (Homo sapiens, UniProt O43148) | enzyme activity, inhibitor | 200 µM | inhibition | 95.2%
C#Cc1n[nH]c2c(-c3cn([C@@H](C)c4ccccn4)c(=O)[nH]c3=O)cc(F)cc12 | RET (Homo sapiens, UniProt P07949) | enzyme activity, inhibitor | 0.1 µM | inhibition | 6.5%
